Experimental data pooled from the literature.
Protocols differ between the studies behind these lines. ± marks the error that the study gave.

`O=C(OC(C(F)(F)F)C(F)(F)F)N1CCC(CNS(=O)(=O)c2ccc(Cl)cc2)CC1` has a Tmax of 4 h (CB17 SCID mouse, male, plasma and brain; oral, 30 mg/kg).
`Cc1ccc(NC(=O)N2CCCN3CCC(c4ccc(C#CC5(O)CCCCC5)cc4)C3C2)cc1` (stereo not shown) gave a Tmax of 1 h (CD-1 mouse, plasma; oral, 10 mg/kg, single dose).
`NC(=O)c1ccc(C(=O)NOCc2ccc(Sc3cccc(Cl)c3)c(C(F)(F)F)c2)cc1` gave a Tmax of 0.42 h (male ICR mouse, plasma; intraperitoneal, 30 mg/kg).
`CCS(=O)(=O)c1ccccc1C(=O)N1CCN(c2nc3ccc(F)cc3s2)C[C@@H]1C` gave a Tmax of 0.0833 h (mouse; intravenous, 3 mg/kg).
`COc1ccc(NC(=O)N2CCCCN3[C@H](CN(C)C)[C@H](c4ccc(C#Cc5ccccc5)cc4)[C@@H]3C2)cc1` has a Tmax of 8 h (CD-1 mouse, plasma; oral, 10 mg/kg, single dose).
With `N=C(N)NCCC[C@@H]1NC(=O)[C@H](Cc2c[nH]c3ccccc23)NC(=O)[C@@H](CC2CCCCC2)NC(=O)[C@@H]2CCCN2C(=O)[C@@H](NC(=O)CCc2ccccc2)CCCNC1=O` the Tmax was 0.238 h (C57BL/6J mouse, plasma; intraperitoneal, 1 mg/kg, single dose).
With `O=C1OC2(c3ccccc31)c1cc(I)c(O)c(I)c1Oc1c2cc(I)c(O)c1I` the Tmax was about 0.333 h (C57BL/6 mouse, female, plasma; oral, 100 mg/kg).
With `CCNC(=O)c1noc(-c2cc(C(C)C)c(O)cc2O)c1NC(=O)CCN1CCOCC1` the Tmax was at most 2 h (CD1 nude mouse A-431 xenograft, tumour; intraperitoneal, 80 mg/kg).
`O=C(NCCN1C(=O)C=CC1=O)[O][Pt-2]12([O]C(=O)NCCN3C(=O)C=CC3=O)([NH2+][C@@H]3CCCC[C@H]3[NH2+]1)[O]C(=O)C(=O)[O]2` gave a Tmax of 48 h (ICP-MS; BALB/c mouse CT26 allograft, tumour; intravenous, dose not given).
With `CN(CCCNC(=O)c1cccc(C(=O)O)c1)CCCNC(=O)c1cc(NC(=O)c2cc(NC(=O)c3cc(NC(=O)c4cc(NC(=O)[C@H](N)CCNC(=O)c5cc(NC(=O)c6cc(NC(=O)c7nc(NC(=O)c8nccn8C)cn7C)cn6C)cn5C)cn4C)cn3C)cn2C)cn1C` the Tmax was 1 h (C57BL/6 mouse, plasma; intraperitoneal, 120 nmol/animal).
With `COc1ccc(NC(=O)N2CCCN3CCC(c4ccc(C#Cc5ccccc5)cc4)C3C2)cc1` (stereo not shown) the Tmax was 8 h (CD-1 mouse, brain; oral, 10 mg/kg, single dose).
The Tmax of `CC(C)c1cnc(-c2cc(Cl)ccc2F)cc1Nc1ccncc1C(=O)NC(CO)CO` is reported as 1 to 3 h (female BALB/c mouse, 4T1 tumour, plasma; oral, 100 mg/kg twice daily, after first dose).
With `COc1ccc(-c2ccn(CC[C@](C)(C(=O)NO)S(C)(=O)=O)c(=O)c2)c(F)c1` the Tmax was 0.33 ± 0.13 h (CF-1 mouse, female; subcutaneous, 300 mg/kg).
With `CCN(CC)c1ccc2nc3c4ccccc4/c(=N/c4ccncc4)cc-3oc2c1` the Tmax was 1 h (LC-MS; NMRI mouse, plasma; oral, 20 mg/kg, noninfected and infected mice).
For `C[C@@H](COc1ccc(F)cc1)C(=O)n1nc(N)c2ccc(CO)cc21`, the Tmax was 0.25 h (C57BL/6 mouse, plasma; oral, 10 mg/kg).
The Tmax of `Cc1[nH]nc2c1N=C(c1ccccc1Cl)c1cnc(N3CCOCC3)cc1N2` is reported as 7 h (nude mouse, HCC1806 xenograft, tumour; oral, 15 mg/kg once daily).
For `CCCCCCc1ccc(Oc2ccccc2C#N)c(O)c1`, the Tmax was 1 h (CD-1 mouse, plasma; subcutaneous, 100 mg/kg).
For `CC1(C)CC[C@@]2(CO)C(=C3C=C[C@@H]4[C@@]5(C)CC[C@H](O)[C@@](C)(CO)[C@@H]5CC[C@@]4(C)[C@]3(C)C[C@@H]2O)C1`, the Tmax was 8 h (mouse, plasma; oral, 50 mg/kg of saikosaponin a).
With `CC(C)[C@H](CO)Nc1nc(Nc2ccc(C(=O)NCCNS(=O)(=O)c3cccc4c(N(C)C)cccc34)c(Cl)c2)c2ncn(C(C)C)c2n1` the Tmax was 1 h (mouse, kidney and serum; oral, 20 mg/kg).
The Tmax of `[11CH3]N1CCN(CCCOc2ccc(=O)n(-c3ccc(Cl)c(Cl)c3)n2)CC1` is reported as 0.5 h (radiotracer; mouse BALB/c male, liver; intravenous).
With `CC=C1C(OC2OC(CO)C(O)C(O)C2O)OC=C(C(=O)OC)C1CC(=O)OCC1OC(OCCc2ccc(O)cc2)C(O)C(O)C1O` (stereo not shown) the Tmax was 0.133 h (tumour-bearing BALB/c mouse, plasma; oral, 109.2 mg/kg).
The Tmax of `COC(=O)N[C@H]1CC[C@@H](Nc2cc(NCc3ccccc3F)n3ncc(C(C)C)c3n2)CC1` is reported as 0.25 h (female BALB/c mouse, plasma; oral, 10 mg/kg).
The Tmax of `N#CC1(c2ccc3c(N)ncnn23)OC(COP(=O)(O)O)C(O)C1O` (stereo not shown) is reported as 1 h (LC-MS/MS; CD-1 mouse male, lung; oral, 100 mg/kg of remdesivir).
For `C[C@@H]1Cc2c([nH]c3ccccc23)[C@@H](c2c(F)cc(/C=C/C(=O)O)cc2F)N1C12CC(C1)C2`, the Tmax was 2 h (Balb/c nude mouse, MCF7 xenograft, tumour; oral, 10 mg/kg).
The Tmax of `Clc1ccc2ccc3[n+](c2c1)[Ir-3]12([c]4ccccc4-3)([c]3ccccc3-c3ccc4ccc(Cl)cc4[n+]31)[n+]1ccccc1-c1cccc[n+]12.F[P-](F)(F)(F)(F)F` is reported as 4 h (ICP-MS, measured: iridium; mouse, serum; i.p., 2.0 mg/kg).
